Published values collected from several papers.
± marks the error that the study gave.

Under “stability relative error”, CCOc1c([C@H](C)n2nc(C)c3c(N)ncnc32)cc(Cl)c(F)c1[C@@H]1CNC(=O)C1 is recorded as 7.9% (rat plasma; 5 ng/mL, 3 weeks, -80 °C, frozen storage; relative to: nominal concentration).
OC[C@H]1O[C@@H](c2ccc(Cl)c(Cc3ccc(O[C@H]4CCOC4)cc3)c2)[C@H](O)[C@@H](O)[C@@H]1O — result for “change in HDL cholesterol”: 5.75 mg/dL (Japanese type 1 diabetes patients, blood; 25 mg, day 28; relative to: baseline).
CC(=O)NC[C@H]1CN(c2ccc(N3CCOCC3)c(F)c2)C(=O)O1 — result for “deviation from nominal concentration”: 0.6% (human whole blood; concentration not given, 48 h, 4 °C).
CNC(=O)c1ccc(-c2cnc3ncc(Cc4ccc5ncccc5c4)n3n2)cc1F — result for “non-cardiac chest pain incidence (all grades)”: 0% (CTCAE v4.0, any causality; human hepatocellular carcinoma patients; oral, 600 mg twice daily, expansion cohort at RP2D).
With CCn1cc(C(=O)N2CCOCC2)c(=O)c2cc(NC3Cc4ccccc4C3)cnc21 the half-life was 8.2 h (human, fed; oral suspension, 1200 mg single dose, arithmetic mean).
CCCCC1=NC2(CCCC2)C(=O)N1Cc1ccc(-c2ccccc2S(=O)(=O)Nc2noc(C)c2C)c(COCC)c1 has a Tmax of 3.25 h (healthy adult volunteers, plasma; oral, 100 mg, single dose, fasted, crushed tablet).
Under “treatment-emergent adverse events”, O=C(Nc1nc2cccc(-c3ccc(CN4CCS(=O)(=O)CC4)cc3)n2n1)C1CC1 is recorded as 0% (item: diarrhoea; human rheumatoid arthritis patients; oral, 75 mg once daily, 4 weeks, regardless of relatedness).
For C[C@H]1Oc2cc(cnc2N)-c2c(nn(C)c2C#N)CN(C)C(=O)c2ccc(F)cc21, the Cmax, dose-normalized was 6 ng/mL/mg (human patients, plasma; oral, cycle 2 day 1, geometric mean, added: avelumab).
CCN1/C(=C/C(C)=O)Sc2ccc(F)cc21 — result for “systolic blood pressure change”: 113 ± 10.1% (cynomolgus monkey; oral, 10 mg/kg, 6 h post-dose; relative to: pre-dose).
With CCO[C@H]1CCN(Cc2c(OC)cc(C)c3[nH]ccc23)[C@H](c2ccc(C(=O)O)cc2)C1 the unbound Cmax was 711 ng/mL (human healthy controls, plasma; oral, 200 mg single dose, geometric mean).
Under “log2 fold change”, Cn1cc(-c2ccc(-c3cncc(Cl)c3N3CCC4(CCNC4=O)CC3)cc2)cn1 is recorded as 2.18 (COLO 205; gene expression, microarray, item: CYP27B1 mRNA; concentration not given, 2 h; relative to: untreated cells).
CCCC1CCC(c2ccc(OCC)c(F)c2F)CC1 (stereo not drawn) has a concentration of 0.7 ng/mL (item: compound; human pregnant women, male fetuses, cord serum; dose not given, paired maternal-cord samples, mean).
COc1ccc(Cl)cc1C(=O)NCCc1ccc(S(=O)(=O)NC(=O)NC2CCCCC2)cc1 [carbon-11 labelled]: “liver to blood rate constant” 19 h⁻¹ (population PK model; humans; including SLCO1B1-mutated subject).
For CC12CC3(C)CC(C(=O)O)(C1)CC(C(=O)O)(C2)C3, the HC50 was over 128 µg/mL (haemolysis; sheep erythrocytes; 1 h, pH 7.5).
With O=c1[nH]c(=O)n([C@H]2C[C@H](O)[C@@H](CO)O2)cc1CCC[18F] the blood concentration was 0.31 ± 0.11 %ID/g (CD-1 nu/nu male mice, RG2 tumour, blood; intravenous, dose not given, 2 h, co-injection).
For CC[C@@H]1CN(C(=O)NCC(F)(F)F)C[C@@H]1c1cnc2cnc3[nH]ccc3n12, the CL/F ratio was 0.85 (population PK model; healthy, RA and CD subjects, plasma; oral, immediate-release formulation; relative to: females over males).
Under “TEAE sinus bradycardia”, O=C(O)CCC(=O)O.[2H]C([2H])([2H])Oc1cc(C)c2[nH]ccc2c1CN1CC[C@@H](C2CC2)C[C@H]1c1ccc(C(=O)O)cc1 is recorded as 0% (healthy Chinese subjects; 100 mg, single ascending dose).
Under “mean plasma concentration”, CCN1CCN(Cc2ccc(NC(=O)c3ccc(C)c(NC(=O)c4cncc(-c5cccs5)c4)c3)cc2C(F)(F)F)CC1 is recorded as 327 ng/mL (LC-MS/MS; C57BL/6 mouse, plasma; intraperitoneal, 10 mg/kg single dose, 1 h).
Under “DLS scattered light intensity”, Cc1oc(C)c(S(=O)(=O)NCC(F)(F)c2ccc(Br)cc2)c1C(=O)O is recorded as 1.83e+07 counts/s (colloidal aggregate formation, dynamic light scattering; 50 mM potassium phosphate buffer; 200 µM, pH 7.0, 1% DMSO; higher = more aggregation).
The tissue uptake of CC(C)C[C@H](NC(=O)C[C@H](O)[C@H](CC(C)C)NC(=O)[C@H](Cc1c[nH]cn1)NC(=O)CNC(=O)[C@@H](NC(=O)[C@H](C)NC(=O)[C@H](Cc1c[nH]c2ccccc12)NC(=O)[C@H](CCC(N)=O)NC(=O)[C@@H](Cc1ccccc1)NC(=O)COCCOCCNC(=O)CCC(C(=O)O)N1CCN(CC(=O)O)CCN(CC(=O)O)CCN(CC(=O)O)CC1)C(C)C)C(N)=O (stereo partly drawn) [lutetium-177 labelled] is reported as 0.4 ± 0.1 %ID/g (female BALB/c nu/nu mice, lung; intravenous, 50 pmol, 1 h).
For O=S(=O)(Nc1ccc(-c2cnco2)cc1)c1cccc(Cl)c1O, “DLS scattered light intensity” read 702000 counts/s (colloidal aggregate formation, dynamic light scattering; 50 mM potassium phosphate buffer; 200 µM, pH 7.0, 1% DMSO; higher = more aggregation).
The solubility of O=c1c2ccccc2oc2ccccc12 is reported as 0.0462 mole fraction (tricaprin-tricaprylin mixture; 30 °C, tricaprin fraction 0.36).
CNCCOC12CC3(C)CC(C)(CC(Cn4ncc(-c5ccc(N6CCc7cccc(C(=O)Nc8nc9ccccc9s8)c7C6)nc5C(=O)O)c4C)(C3)C1)C2: “PR interval change” -9 ms (beagle dog, male, anaesthetised; intravenous bolus, 0.03 mg/kg, 120 min; relative to: baseline).
Under “vessel puncture site haematoma”, Cc1cc(-c2nccc3c2ccn3CC(=O)Nc2ccc(-c3cnccn3)cn2)ccn1 is recorded as 0% (human; 5 mg once daily, multiple ascending dose).
For Cc1ccc([C@@H]2O[C@H](CO)[C@@H](O)[C@H](O)[C@H]2O)cc1Cc1ccc(-c2ccc(F)cc2)s1, “urinary phosphate excretion change” read -90.2 mg (item: inorganic phosphorus; Japanese type 2 diabetes patients; 25 mg, day 18, 24 h urine collection; relative to: baseline).
CC(C)(C(=O)N1CCOc2c(C#N)cncc2C1)C(F)F: “subjects with TEAE” 0% (item: medical device site dermatitis; human, both sexes; oral, 15 mg twice daily, 14 days, multiple ascending dose).
With CNCc1ccc(-c2[nH]c3cc(F)cc4c3c2CCNC4=O)cc1 the asthenia/fatigue incidence was 0% (patients; oral, 600 mg twice daily, grade 4).
O=C(/C=C/CCc1ccc(O)cc1)/C=C/c1ccc(O)cc1 has a body weight of 20.4 ± 0.93 g (nude mouse MCF7 xenograft; 20 mg/kg, day 8).
Under “DLS scattered light intensity”, O=S(=O)(NC1CCSc2c(F)cccc21)c1c(O)cc(F)c(F)c1F (stereo not drawn) is recorded as 1.37e+06 counts/s (colloidal aggregate formation, dynamic light scattering; 50 mM potassium phosphate buffer; 200 µM, pH 7.0, 1% DMSO; higher = more aggregation).
COc1ccnc(C(=O)NC(CO)C(=O)O)c1O (racemic) — result for “Freundlich coefficient KF”: 6.07 mL/g (soil adsorption; clay loam soil; pH 7.2, organic carbon 4.4 %).
Under “asthenia TEAE incidence”, COc1ccc([C@@H](O)c2cc(-c3ncnc4cc(N5CCOCC5)ccc34)c(F)cc2Cl)nn1 is recorded as 17% (locally advanced rectal cancer patients; 150 mg, added: capecitabine and radiotherapy).
For O=S(=O)(NC1(Cc2ccc(F)cc2)CC1)c1cccc(Cl)c1O, “DLS scattered light intensity” read 671000 counts/s (colloidal aggregate formation, dynamic light scattering; 50 mM potassium phosphate buffer; 200 µM, pH 7.0, 1% DMSO; higher = more aggregation).
The peak-trough fluctuation of Fc1ccc([C@@H]2CCNC[C@H]2COc2ccc3c(c2)OCO3)cc1 is reported as 56% (human, all CYP2D6 genotypes, plasma; oral, 20 mg, steady state).
CN(C(=O)n1cnc(-c2cccnc2)c1)[C@H]1CC[C@H](O)CC1 gave a tissue concentration of 17.2 ± 1.6 ng/g (rat, hippocampus; oral, 10 mg/kg daily for 5 days, 24 h).
CC[C@H](C)[C@H](NC(=O)[C@H](Cc1ccccc1)NC(=O)[C@H](CCC(=O)O)NC(=O)[C@H](CCCCNC(=O)COCCOCCNC(=O)COCCOCCNC(=O)CC[C@H](NC(=O)CCCCCCCCCCCCCCCCC(=O)O)C(=O)O)NC(=O)[C@H](C)NC(=O)[C@H](C)NC(=O)[C@H](CCC(N)=O)NC(=O)CNC(=O)[C@H](CCC(=O)O)NC(=O)[C@H](CC(C)C)NC(=O)[C@H](Cc1ccc(O)cc1)NC(=O)[C@H](CO)NC(=O)[C@H](CO)NC(=O)[C@@H](NC(=O)[C@H](CC(=O)O)NC(=O)[C@H](CO)NC(=O)[C@@H](NC(=O)[C@H](Cc1ccccc1)NC(=O)[C@@H](NC(=O)CNC(=O)[C@H](CCC(=O)O)NC(=O)C(C)(C)NC(=O)[C@@H](N)Cc1cnc[nH]1)[C@@H](C)O)[C@@H](C)O)C(C)C)C(=O)N[C@@H](C)C(=O)N[C@@H](Cc1c[nH]c2ccccc12)C(=O)N[C@@H](CC(C)C)C(=O)N[C@H](C(=O)N[C@@H](CCCNC(=N)N)C(=O)NCC(=O)N[C@@H](CCCNC(=N)N)C(=O)NCC(=O)O)C(C)C — result for “placebo-subtracted change in QTcI”: -6.1 ms (QT interval corrected for heart rate, 12-lead Holter ECG; healthy human subjects; subcutaneous, 1.5 mg once weekly, 26 h post-dose, steady state; relative to: placebo, time-matched baseline).
The CL/F of C[C@@H](N)C1CCN(S(=O)(=O)c2cccc3cnccc23)CC1 is reported as 7420 L/h (healthy volunteers, fasted, plasma; oral, 25 mg).
For O=C(Nc1cnccc1Cl)N1CCN(Cc2ccc3c(c2)OC(F)(F)O3)CC1, “alanine aminotransferase increased” read 0% (multiple ascending dose; elderly men and women; 100 mg, treatment-emergent adverse events).
For Cc1cc(Nc2ccc(S(F)(F)(F)(F)F)cc2)n2nc(C(C)(F)F)nc2n1, “adverse event Fatigue” read 18.2% (Plasmodium falciparum malaria patients; oral, 250 mg).
With COc1ncc(-c2nc3c(n2C(C)C)[C@H](c2ccc(Cl)cc2)N(c2cc(Cl)cn(C)c2=O)C3=O)c(OC)n1 the median half-life was 19.9 h (human patients, plasma; oral, 100 mg, high-dose arm, cycle 2 day 1).

For quick reference, copied from above:
O=C(/C=C/CCc1ccc(O)cc1)/C=C/c1ccc(O)cc1 has a body weight of 20.4 ± 0.93 g (nude mouse MCF7 xenograft; 20 mg/kg, day 8).
The solubility of O=c1c2ccccc2oc2ccccc12 is reported as 0.0462 mole fraction (tricaprin-tricaprylin mixture; 30 °C, tricaprin fraction 0.36).
Under “treatment-emergent adverse events”, O=C(Nc1nc2cccc(-c3ccc(CN4CCS(=O)(=O)CC4)cc3)n2n1)C1CC1 is recorded as 0% (item: diarrhoea; human rheumatoid arthritis patients; oral, 75 mg once daily, 4 weeks, regardless of relatedness).
Under “DLS scattered light intensity”, Cc1oc(C)c(S(=O)(=O)NCC(F)(F)c2ccc(Br)cc2)c1C(=O)O is recorded as 1.83e+07 counts/s (colloidal aggregate formation, dynamic light scattering; 50 mM potassium phosphate buffer; 200 µM, pH 7.0, 1% DMSO; higher = more aggregation).
CN(C(=O)n1cnc(-c2cccnc2)c1)[C@H]1CC[C@H](O)CC1 gave a tissue concentration of 17.2 ± 1.6 ng/g (rat, hippocampus; oral, 10 mg/kg daily for 5 days, 24 h).
CNCCOC12CC3(C)CC(C)(CC(Cn4ncc(-c5ccc(N6CCc7cccc(C(=O)Nc8nc9ccccc9s8)c7C6)nc5C(=O)O)c4C)(C3)C1)C2: “PR interval change” -9 ms (beagle dog, male, anaesthetised; intravenous bolus, 0.03 mg/kg, 120 min; relative to: baseline).
